{"data": "Measured values of several laboratories", "note": "Compare with care: the assays were run in different laboratories. ± gives the spread as reported."}
{"Compound": "NC[C@@H]1O[C@H](O[C@H]2[C@@H](O)[C@H](O[C@@H]3[C@@H](O)[C@H](N)C[C@H](N)[C@H]3O[C@H]3O[C@@H]4COCO[C@H]4[C@H](O)[C@H]3N)O[C@@H]2CO)[C@H](N)[C@@H](O)[C@@H]1O", "tested on": "Mycobacterium smegmatis ribosome A1408G", "assay": "translation, cell-free luciferase synthesis", "quantity": "IC50", "result": "32.6 ± 9.13 µg/mL"}
{"Compound": "CCCCCCCCC(=O)NCc1ccc(O)c(OC)c1", "tested on": "mAb 4-AT4", "assay": "antibody binding, indirect competitive ELISA", "conditions": "added: coating antigen hapten 3-OVA", "quantity": "IC50", "result": "0.0416 µg/mL"}
{"Compound": "CSCC[C@@H]1NC(=O)[C@H](CCCNC(=N)N)NC(=O)[C@H](Cc2ccc(O)cc2)NC(=O)[C@@H](NC(=O)[C@H](CCCNC(=N)N)NC(=O)[C@H](CCCCN)NC(=O)[C@H](CC(=O)O)NC(=O)[C@H](C)N)CSSC[C@@H](C(=O)N[C@@H](CCCNC(=N)N)C(=O)N[C@@H](Cc2ccc(O)cc2)C(=O)NCC(=O)O)NC(=O)CNC(=O)[C@H](CCCCN)NC(=O)[C@H](CCCCN)NC(=O)[C@@H]2CSSC[C@H](NC1=O)C(=O)N[C@@H](CCC(N)=O)C(=O)N[C@@H](CCCNC(=N)N)C(=O)N[C@@H](Cc1ccc(O)cc1)C(=O)N[C@@H](Cc1c[nH]cn1)C(=O)N[C@@H](CCC(N)=O)C(=O)N[C@@H](CCCNC(=N)N)C(=O)N[C@@H](CCCNC(=N)N)C(=O)N[C@@H](CCC(N)=O)C(=O)N[C@@H](CCCNC(=N)N)C(=O)N[C@@H](CCCNC(=N)N)C(=O)N[C@@H](CCC(N)=O)C(=O)N2", "tested on": "rat Kv1.6", "assay": "conductance-voltage relation, electrophysiology", "conditions": "dose not given", "scale": "baseline: control", "quantity": "V1/2 shift", "result": "no effect"}
{"Compound": "CSC(=NNC(=O)c1ccc([N+](=O)[O-])cc1)SC", "tested on": "Mycobacterium", "system": "Kansasii", "quantity": "MIC", "result": "25 µg/mL"}
{"Compound": "COC(=O)C1=CO[C@@H](OC(C)=O)[C@@H]2C(Cn3cc(CN4C(=O)c5ccccc5C4=O)nn3)=CC[C@H]12", "tested on": "SK-N-SH", "assay": "neuroprotection, MTT", "conditions": "0.6 µM, 24 h, added: 250 µM H2O2", "quantity": "viability", "result": "58.2 ± 1.7%"}
{"Compound": "CC[C@H](C)[C@@H]1NC(=O)CNC(=O)[C@@H]2Cc3c([nH]c4ccccc34)SC[C@H](NC(=O)CNC1=O)C(=O)N[C@@H](CC(=O)NCc1cn(CCNC(=O)OCCSSCCC(=O)NCc3cn(CC(=O)N[C@H](Cc4ccccc4)C(=O)N[C@H]4CSSC[C@@H](C(=O)N[C@H](C(=O)O)[C@@H](C)O)NC(=O)[C@H]([C@@H](C)O)NC(=O)[C@H](CCCCN)NC(=O)[C@@H](Cc5c[nH]c6ccccc56)NC(=O)[C@H](Cc5ccc(O)cc5)NC4=O)nn3)nn1)C(=O)N1C[C@H](O)C[C@H]1C(=O)N[C@@H]([C@@H](C)[C@@H](O)CO)C(=O)N2", "tested on": "AR-42J", "assay": "cell growth or viability, MTS", "quantity": "EC50", "result": "4.2 nM"}
{"Compound": "COC(=O)C1=CO[C@@H](OC(C)=O)[C@@H]2C(Cn3cc(-c4ccc(OC)cc4)nn3)=CC[C@H]12", "tested on": "SK-N-SH", "assay": "neuroprotection, MTT", "conditions": "0.6 µM, 24 h, added: 250 µM H2O2", "quantity": "viability", "result": "54.2 ± 0.8%"}
{"Compound": "Cc1c(-c2cccc(C3=NCCN3)c2)oc(-c2cccc(C3=NCCN3)c2)c1C", "tested on": "F21T G-quadruplex DNA", "assay": "FRET melting competition", "conditions": "1 µM, added: calf thymus DNA, G4:CT 1:300", "scale": "baseline: without competitor", "quantity": "remaining ΔTm", "result": "100%"}
{"Compound": "COC(=O)C1=CO[C@@H](OC(C)=O)[C@@H]2C(Cn3cc(CCO[Si](C)(C)C(C)(C)C)nn3)=CC[C@H]12", "tested on": "SK-N-SH", "assay": "neuroprotection, MTT", "conditions": "0.075 µM, 24 h, added: 250 µM H2O2", "quantity": "viability", "result": "74.2 ± 0.4%"}
{"Compound": "NC[C@@H]1O[C@H](O[C@H]2[C@@H](O)[C@H](O[C@@H]3[C@@H](O)[C@H](N)C[C@H](N)[C@H]3O[C@H]3O[C@H](CO)[C@@H](OCC(O)CO)[C@H](O)[C@H]3N)O[C@@H]2CO)[C@H](N)[C@@H](O)[C@@H]1O (stereo partly drawn)", "tested on": "ribosome with mitochondrial A1555G A site", "assay": "luciferase translation, cell-free translation", "quantity": "IC50", "result": "24.3 ± 3.3 µg/mL"}
{"Compound": "CC(C)CC(O)(CC(C)C)c1cn(C(=O)N2CCCC2)nn1", "tested on": "mouse T-cells", "assay": "SILAC proteomics, measured: PAIP2B", "conditions": "1 nM, 6 h, unit not given", "scale": "baseline: DMSO", "quantity": "protein level", "result": "0.92 ± 0.07"}
{"Compound": "COC(=O)C1=CO[C@@H](OC(C)=O)[C@@H]2C(Cn3cc(-c4ccc(F)cc4)nn3)=CC[C@H]12", "tested on": "SK-N-SH", "assay": "neuroprotection, MTT", "conditions": "0.6 µM, 24 h, added: 250 µM H2O2", "quantity": "viability", "result": "52.3 ± 0.9%"}
{"note": "Repeated from above:"}
{"Compound": "CC(C)CC(O)(CC(C)C)c1cn(C(=O)N2CCCC2)nn1", "tested on": "mouse T-cells", "assay": "SILAC proteomics, measured: PAIP2B", "conditions": "1 nM, 6 h, unit not given", "scale": "baseline: DMSO", "quantity": "protein level", "result": "0.92 ± 0.07"}
